Published values collected from several papers.
Numbered parts are unrelated; each lists some results of a single study.

Series 1
Target: Interferon regulatory factor 5, full length, phosphomimetic (IRF5, Homo sapiens, UniProt Q13568-2, residues 1-514, K96S/S451D/S453D/S456D/S462D)
Method: protein-binding microarray
Molecule type: double-stranded DNA, one strand shown
Sample: in vitro
Tested at: 250 nM
Setting: 60-bp whole probe
With: salmon DNA 0.4 mg/ml
Baseline: random background probes
Reading: higher = stronger binding
Shared flanks, not repeated: GCCTAGCAC … GTCTTGATTCGCTTGACGCTGCTG
Sequence	log fluorescence [z-score]
GAGGGTGTTCTTTTCTGTTGGTGCTAG	0.617
TTAGGTATCGGACGGGGTTAGTGCTAG	1.29
TTAGAGATCAGACTGGATTAGTGCTAG	-0.243
TTACGTTTCGGGTTTCGGTTAGTGCTA	10.1
GAAGGTATCGGTTTCGGGACGTGCTAG	8.47
TGCAACATCTACAATGGCTTTGTGCTA	-0.272
TTAGGTTTCGGGTTTCGGTCAGTGCTA	9.65
ATAGATCTCAGTATCGATTAGTGCTAG	6.72
GATGGACTGGGTTTCGGGACGTGCTAG	2.2
GACTGTATCGGTTTCGGGACGTGCTAG	8.7
TCACTTCTGGACTGTTTGACTGTGCTA	0.394
GAATGTGTCTTAAATAGGAGAGTGCTA	0.242
TCAGGTATCGACTATCGGTTAGTGCTA	7.78
GAAGATCTCAGTTTCGAGACGTGCTAG	5.34
TCACCTTGGGCTCTAGGACTGTGCTAG	-0.417
TTAGGTATCGGTTTCGATTAGTGCTAG	10.9
GACGAACTGAGTATCGAGAGGTGCTAG	1.64
GTGGTTTTCATTATTGCTTCGTGCTAG	2.39
TATAAATTATCTTTAATCCTGTGCTAG	0.67
TTAGAACTGAGACTGGATAAGTGCTAG	-0.194
GACGGACTTGGTCTCGGGACGTGCTAG	-0.471
GACGGTCTCCCTTTCCTGACGTGCTAG	-0.156
TTCGGTTTCGGTTTCGGTTAGTGCTAG	12.4

Series 2
Target: Histone acetyltransferase KAT6A, winged helix 1, GST fusion (KAT6A, Homo sapiens, UniProt Q92794, residues 1-85)
Method: protein binding microarray
Molecule type: double-stranded DNA, one strand shown
Sample: in vitro
Tested at: not given
Setting: 8-mer, flanks averaged, mean of 2 arrays, mostly near background
Baseline: not given
Reading: higher = stronger binding
Residues (chain): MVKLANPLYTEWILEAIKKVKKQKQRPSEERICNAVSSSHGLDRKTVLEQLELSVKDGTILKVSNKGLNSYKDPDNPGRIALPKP
Sequence	E-score
AAGATATA	-0.147
TCACGAGA	-0.279
AGTCGGTC	0.082
GAGAAGAC	-0.00741
CCTTTTAG	-0.0807
CCGGGGCC	0.209
ATCTCTTG	-0.278
CCTTAACC	-0.0874
GATCGCAA	0.0355
CCAGAACG	0.00567
AGTTAGAA	-0.0777
GGCCCTGA	-0.0531
AGTGTGGC	0.0162
GTTTAGGA	-0.191
ACTTGCAA	-0.181
GCGCAGCA	0.162
AGCCTAAC	0.0799

Series 3
Target: Prothrombin, mature alpha-thrombin (F2, Homo sapiens, UniProt P00734)
Method: aptamer microarray, sandwich
Molecule type: DNA with 2'F-ANA
Sample: in vitro
Tested at: 200 nM
Setting: whole 15-mer aptamer, many near background
With: Cy3 exosite-II aptamer, 400 nM
Reading: higher = stronger binding
Sequence: GGTTGGTGTGGTTGG
Modification	mean fluorescence intensity
2'F-ANA at 1 4 5 8 10 11 12 13 14	47.6 a.u.
2'F-ANA at 3 7 8 10 11 12 14	383 a.u.
2'F-ANA at 1 2 3 5 6 7 11 12 13	74.4 a.u.
2'F-ANA at 1 3 5 6 7 9 11 15	52.5 a.u.
2'F-ANA at 1 2 6 8 10 11 15	52.5 a.u.
2'F-ANA at 1 2 3 5 6 7 12 15	109 a.u.
2'F-ANA at 1 3 4 6 7 8 11 13 14 15	70.9 a.u.
2'F-ANA at 1 2 3 4 5 6 8 9 10 12 13 15	93.3 a.u.
2'F-ANA at 1 3 6 8 11 13 14	84.5 a.u.
2'F-ANA at 2 3 6 8 11 12 14	498 a.u.
2'F-ANA at 3 5 6 10 11 12 13 14 15	75.3 a.u.
2'F-ANA at 1 2 3 7 9 10 15	126 a.u.
2'F-ANA at 2 5 8 12 14 15	47.9 a.u.
2'F-ANA at 1 2 4 5 6 8 9 10 11 12	80.3 a.u.
2'F-ANA at 1 5 7 8 9 10 13 14 15	56.1 a.u.
2'F-ANA at 9 11 12 13 14	215 a.u.
2'F-ANA at 2 3 4 5 10 12 14 15	51.6 a.u.
2'F-ANA at 6 9 11 12 13	547 a.u.
2'F-ANA at 3 5 6 9 11 12 14 15	58.4 a.u.

Series 4
Target: Phosphate system positive regulatory protein PHO4, full length, GST-tagged (PHO4, Saccharomyces cerevisiae, UniProt P07270, residues 1-312)
Method: competition protein-binding microarray
Molecule type: double-stranded DNA, one strand shown
Sample: in vitro
Tested at: 2 µM
Setting: whole 60-bp probe, lowest competitor level
With: Cbf1 competitor, 0.05 µM
Reading: higher = stronger binding
Shared flanks, not repeated: … GTCTTGATTCGCTTGACGCTGCTG
Target sequence (chain): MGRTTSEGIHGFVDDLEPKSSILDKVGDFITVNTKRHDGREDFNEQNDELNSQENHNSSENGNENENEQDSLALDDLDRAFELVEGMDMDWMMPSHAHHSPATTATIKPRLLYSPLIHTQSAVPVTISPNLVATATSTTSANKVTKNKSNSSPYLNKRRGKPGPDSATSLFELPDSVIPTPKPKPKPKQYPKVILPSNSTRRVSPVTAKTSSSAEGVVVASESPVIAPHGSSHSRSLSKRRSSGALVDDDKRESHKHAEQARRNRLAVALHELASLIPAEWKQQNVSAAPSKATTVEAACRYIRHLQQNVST
Sequence	fluorescence intensity
CTTTCCCGATCTTGCAGGGTGGGTGTAGCACATTTG	5500 a.u.
CTTCTGTAAATTTTTCACGTGTCATGACGCGCCCCG	12300 a.u.
CGTCCTAGTGATTGGGCTGTGGGTGCCATGAGGAAG	6330 a.u.
CTTTCCCGATCTTGTTACGTGGGTGTAGCACATTTG	6070 a.u.
CTTCTGTAAATTTTTCACGTGCGATGACGCGCCCCG	14800 a.u.
GCGGAACGGCCCGCAATCGTGACTCGGCCAAAGGCG	3440 a.u.
TGACCGGGTTGACAGTTCGTGACGGGTACTGTGGCG	4530 a.u.
AAATTACTAAGTTGAACGGTGGGTGACGCCGTATGA	3680 a.u.
CTAACGAAGGTTTGGCGTGTGGGTGACAAGCCAAGT	6670 a.u.
CGTATTTGTCACCATCACGTGCTTTAAAATCTTCAG	20700 a.u.
TAAATCGAAACCACCATCGTGTCCTTCCTTGGGAAC	8330 a.u.
TCAAGAAGGCAGAGATACGTGTGGATTTTGCAGACA	4640 a.u.
ACCTAACCGGTGTCCCACGTGTTTCACGAAGGGCGC	21100 a.u.
AAATTACTAAGTTGTGCCGTGGGTGACGCCGTATGA	6020 a.u.
CTAACGAAGGTTTGTCACGAGACTTACAAGCCAAGT	6470 a.u.
AGGAGGGGAATTACCGGCGTGGCCGATATTCCTTAT	6500 a.u.
AAAGCGGTAATTTGTAACGTGGGTGCAGATATCTAT	9970 a.u.
CGTCCTAGTGATTGTCACCTGACTTCCATGAGGAAG	4700 a.u.
TGTTACTCTAAAGGACACGGGAGAAAAGGTCGCCCC	4930 a.u.

Series 5
Target: Ras GTPase-activating protein-binding protein 1, C-terminal RGG region (G3BP1, Homo sapiens, UniProt Q13283)
UniProt Q13283, sequence (whole entry, looked up): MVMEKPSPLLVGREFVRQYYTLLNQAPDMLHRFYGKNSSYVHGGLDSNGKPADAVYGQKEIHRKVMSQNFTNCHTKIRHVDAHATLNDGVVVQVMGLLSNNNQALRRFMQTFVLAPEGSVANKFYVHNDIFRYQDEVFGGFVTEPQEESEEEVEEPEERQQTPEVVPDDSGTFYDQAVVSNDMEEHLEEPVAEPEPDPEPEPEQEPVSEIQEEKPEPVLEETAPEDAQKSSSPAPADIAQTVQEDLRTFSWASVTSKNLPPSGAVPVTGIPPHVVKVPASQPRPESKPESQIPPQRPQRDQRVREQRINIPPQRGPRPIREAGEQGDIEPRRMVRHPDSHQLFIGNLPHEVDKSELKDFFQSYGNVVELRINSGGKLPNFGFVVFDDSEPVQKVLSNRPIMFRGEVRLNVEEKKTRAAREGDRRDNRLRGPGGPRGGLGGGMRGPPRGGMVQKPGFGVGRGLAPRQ
Method: RNA Bind-n-Seq
Molecule type: RNA
Sample: in vitro
Tested at: 1 µM
Setting: whole 134-nt RNA, ends assumed
With: 150 mM KCl
Baseline: input library
Reading: higher = stronger binding
Shared flanks, not repeated: GGGAGUUCUACAGUCCGACGAUC … UGGAAUUCUCGGGUGUCAAGG
Sequence	log2 enrichment
UCCUGUGCUACACAUCGUAUGUACCGAAUCGGGUUUUUUGGGGUUUUUUGGUUUUUUGGGAAAGUAUUAUGUUACGCCGUUCGGAUCUGC	-0.365
AGUCCUGUGCUACACAUCGUAUGUACCGAAUCGGGCCCCGGGGCCCCGGGCCCCGGGGAAAGUAUUAUGUUACGCCGUUCGGAUCUGCAC	-2.94
UGGGAGGUGGAUUUUGUUUAUUUUUUUAGCUCAUUUCCAGGGGUGGGACUUUUUUUUUAAUAUGUGUCAUGAAUAAAGUUGUUUUUGAAA	2.95
AGUCCUGUGCUACACAUCGUAUGUACCGAAUCGGGGUGGGGAAAAAAAGGGGAGGGGAAAGUAUUAUGUUACGCCGUUCGGAUCUGCACU	2.32
GUCCUGUGCUACACAUCGUAUGUACCGAAUCGGGUUUUUGGGAAAGGGAAAAAAAGGGAAAGUAUUAUGUUACGCCGUUCGGAUCUGCAC	-0.821
UCCUGUGCUACACAUCGUAUGUACCGAAUCGGGUUUUUGGGUUUUUUUGGGAAAAAGGGAAAGUAUUAUGUUACGCCGUUCGGAUCUGCA	-0.555
CUCAAGUCCUGUGCUACACAUCGUAUGUACCGAAUCGGAGGGGAGGGGAGGGGAAAGUAUUAUGUUACGCCGUUCGGAUCUGCACUUCCA	1.28
GCAGGAAGUAAAAACAAAUGGAAAUGCUUCGGAUAGUGGCAGGGGUGGGGGUUGCUAAGGAAAGGGUGGGAUGGGAGUCGGUAAAGAGUU	1.96
ACCAUGCAGGUGGGAAUCUUUGGGAAGUGGGGCAAGGGGGGGAUAGGGAGGGGGGUAACACUUUGGGAACAGGUGGUCCCAGGUCGUUUC	-1.48
CUCAAGUCCUGUGCUACACAUCGUAUGUACCGAAUCGGAAAGGUGGUUUUUGGAAAGUAUUAUGUUACGCCGUUCGGAUCUGCACUUCCA	-1.08
CUCAAGUCCUGUGCUACACAUCGUAUGUACCGAAUCGGAGGAAAAAAAGGAGGAAAGUAUUAUGUUACGCCGUUCGGAUCUGCACUUCCA	-1.31
CCCAUUCCAAGAUUUGCUGUUGGCAUUGUAAUAGGAAGAAAUGGAGAGAUGAUCAAAAAAAUACAAAAUGAUGCUGGUGUUCGCAUUCAG	-1.24
UCCUGUGCUACACAUCGUAUGUACCGAAUCGGAAAAAGGGGAAAAAGGGGAAAAAGGGGAAAGUAUUAUGUUACGCCGUUCGGAUCUGCA	-0.514
CACAGACAACACGCACCCACACAGACACAGAGGGAAGCGGUUGGGAUGGGGACAGGGUGCACAGCAGGGCGGGGUAGGACCCCAGCCCCU	-0.479
